Assay results collected from several papers.
± gives the spread as reported.
Organism: Salmonella typhimurium

Compound | assay | test system | conditions | scale | measurement | value
COCCN(CCOC)N=O | mutagenicity, Ames plate incorporation | TA98 | 500 µg/plate, 3 d, without S9, methanol |  | revertant colonies per plate | 31.7 ± 4
CC(=O)N1CCC(C(=O)N2CCN3C(=O)c4cc(-c5ccccc5)ccc4NC(=O)C3C2)CC1 (stereo not drawn) |  | TA1537 | 15.8 µg/plate | relative to: vehicle | fold increase in revertants | 1.3
Cc1cc(C(=O)NC(C)(C)COc2cccc3c2C(N)=NS(=O)(=O)N3)cc(C)n1 | Ames test, initial | TA98 | 15.0 µg/plate, with: rat liver S9 | relative to: solvent control | revertant ratio | 1
O=[N+]([O-])c1ccc(NC2CCNCC2)c(C(F)(F)F)c1 | SOS/umu test | TA1535/pSK1002 | 0.004 mg/mL, 4 h, without S9, full range |  | survival | 143%
CN(CC(C)(C)C)N=O | mutagenicity, Ames plate incorporation | TA100 | 150 µg/plate, without S9, methanol |  | revertant colonies per plate | 148 ± 6
N#C[C@@]1(n2ccc(N)nc2=O)O[C@H](CO)[C@@H](O)[C@H]1O |  | TA98 | 10 µM, without S9 |  | viability | 96%
O=[N+]([O-])c1ccc(N2CCN(CCC(O)c3ccc(F)cc3)CC2)c(C(F)(F)F)c1 (stereo not drawn) | SOS/umu test | TA1535/pSK1002, TGA medium | 0.000488 mg/mL, 4 h, without S9 |  | survival | 111%
COc1cccc(-c2n[nH]c(SCc3ccccn3)n2)c1OC | Ames preincubation | TA98 | 0.50 mg per plate, with: rat liver S9 |  | revertant colonies per plate | 19
CNC(=O)c1c(N(C)N=O)ncn1C | mutagenicity, Ames plate incorporation | TA1535 | 5000 µg/plate, without S9, methanol |  | revertant colonies per plate | 25.3 ± 2
O=[N+]([O-])c1ccc(N2CCC(NCCC(O)c3ccc(F)c4ccccc34)CC2)c(C(F)(F)F)c1 (stereo not drawn) | SOS response, SOS/umu test | TA1535/pSK1002, TGA medium | 1.53e-05 mg/mL, 4 h, without S9 | relative to: untreated | induction factor | 0.6
O=NN1CCN(C2CCCC2)CC1 | mutagenicity, Ames plate incorporation | TA98 | 1500 µg/plate, 3 d, without S9, methanol |  | revertant colonies per plate | 26 ± 4
OC(CCN1CC=C(c2ccc(F)cc2)CC1)c1ccc(F)c2ccccc12 (stereo not drawn) | SOS/umu test | TA1535/pSK1002 | 0.002 mg/mL, 4 h, with S9, lower range |  | survival | 112%

Some of these lines once more:
Compound | assay | test system | conditions | scale | measurement | value
O=[N+]([O-])c1ccc(N2CCN(CCC(O)c3ccc(F)cc3)CC2)c(C(F)(F)F)c1 (stereo not drawn) | SOS/umu test | TA1535/pSK1002, TGA medium | 0.000488 mg/mL, 4 h, without S9 |  | survival | 111%
